Experimental data gathered from unrelated publications.
Each line is one published result; not all experiments were run side by side. Numbers after ± are the reported error.

O=C(O)c1ccc(/C=C2\SC(=S)N(Cc3cccc(C(F)(F)F)c3)C2=O)cc1  survival (Nlrp3 A350V x LysM-Cre mouse; oral, 20 mg/kg daily, from day 4, stopped day 25; up to): 30 to 48 days
N=C(N)NCCC[C@H](NC(=O)[C@@H]1CCCN1C(=O)[C@@H]1CSSC[C@H](N)C(=O)N[C@@H](Cc2ccc(O)cc2)C(=O)N[C@@H](Cc2ccccc2)C(=O)N[C@@H](CCC(N)=O)C(=O)N[C@@H](CC(N)=O)C(=O)N1)C(=O)NCC(N)=O  peak mean arterial pressure change (male Sprague-Dawley rat, conscious; intra-arterial, 100 ng/kg; relative to: pre-injection baseline): ~35 mmHg
CCCCCCCC/C=C\CCCCCCCCOP(O)(O)=S.N  survival increase (C57BL/6 mouse; subcutaneous, 1 mg/kg single, day 30, dosed 24 h after irradiation, added: 6.4 Gy total-body irradiation): 47%
CCCC[C@@H](C(=O)N[C@@H](CC(=O)O)C(=O)N[C@@H](Cc1ccccc1)C(N)=O)N(C)C(=O)[C@@H](Cc1c[nH]c2ccccc12)NC(=O)CNC(=O)[C@@H](Cc1ccccc1)NC(=O)[C@@H](N)Cc1ccc(O)cc1  paw withdrawal latency (male Sprague Dawley rats; RVM injection, 60 ng, added: CCK-8 sulfate 30 ng RVM -10 min before): 21.8 s
CC(C)C[C@@H]1NC(=O)[C@H](C(C)C)NC(=O)[C@H](CO)NC(=O)CNC(=O)CNC(=O)[C@H](CCCNC(=N)N)NC(=O)[C@@H]2CCCN2C(=O)[C@@H](NC(=O)CC[C@H](NC(=O)c2ccc(N(C)Cc3cnc4nc(N)nc(N)c4n3)cc2)C(=O)O)C(C)(C)SSC[C@@H](C(=O)O)NC(=O)CNC(=O)[C@H]([C@@H](C)O)NC(=O)[C@H](C(C)C)NC1=O  paw weight (rat adjuvant arthritis; iv, 0.05 mg/kg once daily day 0-14, day 14): 3.38 ± 0.11 g
CCN(Cc1ccccc1)C(=O)CCc1nc(CN2CCN(C(=O)Cc3ccc(OC)c(OC)c3)CC2)no1  time in open arms (elevated plus maze; mouse, CCI neuropathic pain; 20 mg/kg): 10.6 ± 1.4 s
CC[C@H](C)[C@H](NC(=O)[C@H](Cc1c[nH]c2ccccc12)NC(=O)[C@H](CCCNC(=N)N)NC(=O)[C@H](CCCCN)NC(=O)[C@H](CC(C)C)NC(=O)[C@H](CC(=O)O)NC(=O)[C@H](Cc1ccccc1)NC(=O)[C@H](C)NC(=O)[C@H](Cc1ccc(O)cc1)NC(=O)[C@H](CC(N)=O)NC(=O)[C@H](Cc1ccc(O)cc1)NC(=O)[C@H](CCCNC(=N)N)NC(=O)[C@H](Cc1ccc(O)cc1)NC(=O)[C@H](Cc1ccc(O)cc1)NC(=O)[C@@H](NC(=O)[C@H](CC(C)C)NC(=O)[C@H](C)NC(=O)[C@H](CC(N)=O)NC(=O)[C@H](Cc1ccc(O)cc1)NC(C)=O)[C@@H](C)CC)C(=O)N[C@@H](Cc1ccc(O)cc1)C(=O)N[C@@H](CC(C)C)C(N)=O  α4β7+ CCR9+ cells (refers to: HA-15 tetramer; antigen-experienced tetramer+ CD4 T cells, healthy adults, HLA-DRB1*0101; dose not given): 0%
CC1(CCCOC2C(O)OC(CO)C(O)C2O)C(=O)[O][Pt][O]C1=O.NC1CCCCC1N (mixture of isomers)  tumour volume reduction (BALB/c mice, GLUT1-expressing breast cancer syngeneic; intravenous, 5 mg/kg, every other day, four doses, 30 days; relative to: vehicle): 10 fold
CC[C@H](C)[C@H](NC(=O)[C@H](Cc1c[nH]c2ccccc12)NC(=O)[C@H](CCCCN)NC(=O)[C@@H](NC(=O)[C@H](CC(C)C)NC(=O)[C@H](CCCCN)NC(=O)CNC(=O)[C@@H](NC(=O)[C@@H](NC(=O)[C@H](CO)NC(=O)[C@@H](NC(=O)[C@@H](NC(=O)[C@H](CCCCN)NC(=O)[C@H](CCC(N)=O)NC(=O)[C@H](C)NC(=O)[C@H](CCSC)NC=O)[C@@H](C)CC)[C@@H](C)CC)[C@@H](C)O)[C@@H](C)CC)C(C)C)C(=O)N[C@H](C(=O)N[C@@H](CCCCN)C(=O)N[C@H](C(=O)N[C@H](C(=O)N[C@@H](CC(N)=O)C(=O)N[C@@H](CCCCN)C(=O)N[C@@H](Cc1ccccc1)C(=O)N[C@H](C(=O)N[C@@H](CCCCN)C(=O)N[C@@H](CCCCN)C(=O)O)[C@@H](C)O)C(C)C)[C@@H](C)O)[C@@H](C)CC (racemic)  time constant (carboxyfluorescein release, stopped-flow fluorescence; POPC vesicles 50 µM; up to 1 µM, pH 7.5, peptide/lipid 1:50): 4.9 s
Cc1cc2c(C(=O)Cc3ccccc3)c(O)c(O)cc2c(O)c1-c1c(C)cc2c(C(=O)Cc3ccccc3)c(O)c(O)cc2c1O  spleen weight reduction (B6 Bcl-2 transgenic mouse; i.p., 0.06 mmol/kg; relative to: control): ~40%
